Measurements collected from several papers.
Every numbered part comes from another study and shows a few of its results, in no order.

Sample 1
Target: Phosphate system positive regulatory protein PHO4, full length, GST-tagged (PHO4, Saccharomyces cerevisiae, UniProt P07270, residues 1-312)
Method: competition protein-binding microarray
Form: double-stranded DNA, one strand shown
Medium: in vitro
Tested at: 2 µM
Setting: whole 60-bp probe, lowest competitor level
Added: Cbf1 competitor, 0.05 µM
Reading: higher = stronger binding
Constant ends, left off below: … GTCTTGATTCGCTTGACGCTGCTG
Residues (chain): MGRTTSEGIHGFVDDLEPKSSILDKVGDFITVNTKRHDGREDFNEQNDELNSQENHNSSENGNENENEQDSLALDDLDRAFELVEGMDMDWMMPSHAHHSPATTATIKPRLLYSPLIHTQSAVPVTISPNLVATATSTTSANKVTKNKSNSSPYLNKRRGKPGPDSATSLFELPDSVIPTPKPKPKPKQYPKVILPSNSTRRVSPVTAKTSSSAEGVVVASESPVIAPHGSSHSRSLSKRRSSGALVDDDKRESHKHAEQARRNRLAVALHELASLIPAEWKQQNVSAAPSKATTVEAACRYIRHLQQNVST
Oligonucleotide	fluorescence intensity [a.u.]
TGCGCAACAACTTGAGGTGTGGGTGTATGTCTAGAA	6340
GGTGATAGCCATATCTTCGTGCTTTTGTTGCGATTG	6110
CTAATTGTGCTTTTGCACGTGCCAGGTTTATTAAAC	18000
AAAGCGGTAATTTGCAGGGTGGGTGCAGATATCTAT	4830
AAATTACTAAGTTGCCATGTGGGTGACGCCGTATGA	10700
AAAGCGGTAATTTGGGTAGTGGGTGCAGATATCTAT	4270
CAGTCTCTGCAAAAGCACGTGCGATGTCTCTGGTGT	20800
CTTTGCCGCCTGAAACACGTGTTGAACAAGCCGCCC	15000
TTGAGAAGTGGGACCCACGTGCCACTCCCTGTTCTG	20500
GTCTTGTCTCATTGCTCGGTGGGTGTCCCCACTTCA	4570
GTCTTGTCTCATTGATTTGTGGGTGTCCCCACTTCA	4320
GTCTTGTCTCATTGCCAAGTGGGTGTCCCCACTTCA	4730
CGGGGTTAAGTTTGTCACGTGACTTGCTTGCAGCAG	12200
TAACGGCTATCCCATCACGCTTTCACCGAGGAGACC	6030
CTTCTCTAGGTTATGTTCATGCCCTTGCTCATCAAC	4890
AAATTACTAAGTTGTCACGTGGGTGACGCCGTATGA	19300
GTCTTGTCTCATTGCCATGTGGGTGTCCCCACTTCA	10600
GTCTTGTCTCATTGTTCTGTGGGTGTCCCCACTTCA	4580
CATACCCAACCTTGAGGGGTGGGTGAAGATATTTGT	3820

Sample 2
Target: Histone acetyltransferase KAT6A, winged helix 2, GST fusion (KAT6A, Homo sapiens, UniProt Q92794, residues 85-181)
Method: protein binding microarray
Form: double-stranded DNA, one strand shown
Medium: in vitro
Tested at: not given
Setting: 8-mer, flanks averaged, mean of 2 arrays, mostly near background
Baseline: not given
Reading: higher = stronger binding
Target sequence (chain): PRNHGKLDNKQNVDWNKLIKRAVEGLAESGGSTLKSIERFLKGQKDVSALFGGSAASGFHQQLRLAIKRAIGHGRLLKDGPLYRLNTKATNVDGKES
Oligonucleotide	E-score
AAGTGCAG	-0.0796
CGAACGCG	0.152
ACTCTTCC	-0.0661
ACTCATTG	-0.123
CGGTACAG	0.0462
CTGCGATA	0.135
CTTGCTCA	0.0511
ATAAATGG	-0.025
AGTTAGGC	0.0285
TAAGTCTA	-0.277
ACGACAGC	-0.133
AAAAATAA	0.0852
CCTTAGCA	0.0908
CGGCGAAC	0.243
AGGGTCAC	-0.138
GGCCATCA	-0.16
GAGAGCAA	0.232
ACCTATCG	-0.00236
AGGATAGC	0.00364
ATCGCAAC	0.13
CCCAATCG	0.0503
CAGAAAGG	0.0571
ATGAAATA	0.116
ACGCACAT	-0.0761
AGCGCTAA	0.113

Sample 3
Target: Sal-like protein 4, full length isoform B (SALL4, Homo sapiens, UniProt Q9UJQ4-2, residues 1-616)
Method: universal PBM
Form: double-stranded DNA, one strand shown
Medium: in vitro
Tested at: not given
Setting: 8-mer, flanks averaged, mean of replicates
Reading: higher = stronger binding
Oligonucleotide	E-score
TCTCTAAA	0.0971
AGGTAGAA	0.148
CGGCCCAA	-0.309
GACAGTGC	-0.094
ACGTTACT	0.121
AAAGTCGT	0.0459
ATCAAAAG	0.153
CTACACAG	0.017
ACTTCGCT	-0.0556
GGTCTTAC	-0.126
GCCGACCA	-0.248
CTCAGAAC	-0.0844
AGATGGTG	-0.0667
TACAACAA	0.278
AATAATAC	0.371
CAATCCAC	0.0495
AGGTTTAT	0.264
CAAGGAAC	-0.0575
CGACAGAC	-0.192
ACAGCGGA	-0.115
AAGAGAAG	0.0539

Sample 4
Target: Prothrombin, mature alpha-thrombin (F2, Homo sapiens, UniProt P00734)
Method: aptamer microarray, sandwich
Form: DNA with 2'F-ANA
Medium: in vitro
Tested at: 200 nM
Setting: whole 15-mer aptamer, many near background
Added: Cy3 exosite-II aptamer, 400 nM
Reading: higher = stronger binding
Oligonucleotide: GGTTGGTGTGGTTGG
Modification	mean fluorescence intensity [a.u.]
2'F-ANA at 1 2 3 5 6 7 9 11 13 15	62.7
2'F-ANA at 1 3 4 10 11 13	64.4
2'F-ANA at 1 4 6 7 10 11	47
2'F-ANA at 1 2 6 8 9 12	332
2'F-ANA at 4 6 10 12 14 15	54.8
2'F-ANA at 1 2 3 4 6 8 10 12 14 15	50.2
2'F-ANA at 1 2 6 7 9 11 14	52.7
2'F-ANA at 1 2 4 7 8 10 11 12 14	46.4
2'F-ANA at 1 3 5 7 8 9 10 13	42.9
2'F-ANA at 5 6 8 9 13	85.5
2'F-ANA at 1 2 5 10 11 12 14	64.5
2'F-ANA at 1 3 4 7 8 9	255
2'F-ANA at 3 4 6 8 12	1010
2'F-ANA at 1 2 3 4 7 12 13 14 15	77.7
2'F-ANA at 1 3 4 5 7 8 10 12 13 14	54.4
2'F-ANA at 1 3 4 6 8 10 12 13 15	64.2
2'F-ANA at 1 2 3 4 5 8 10 12	49.6
2'F-ANA at 1 3 4 5 6 7 9 10 11 12 13 14	49
2'F-ANA at 6 7 9 10 14 15	116
2'F-ANA at 2 4 6 10 12 13 14 15	68
2'F-ANA at 1 2 3 4 6 8 9 12 13 14 15	72.4
2'F-ANA at 3 4 6 7 8 9 14 15	246
2'F-ANA at 2 5 7 8 9 10 11 12 13 14	64.8
2'F-ANA at 4 8 11 12 13 14 15	126
2'F-ANA at 1 2 3 9 11 12 15	362

Sample 5
Target: Interferon regulatory factor 7, full length, phosphomimetic (IRF7, Homo sapiens, UniProt Q92985, residues 1-503, S101K/S471D/S472D/S475D/S476D/S477D/S483D/S484D/S487D)
Method: protein-binding microarray
Form: double-stranded DNA, one strand shown
Medium: in vitro
Tested at: 250 nM
Setting: 60-bp whole probe
Added: salmon DNA 0.4 mg/ml
Baseline: random background probes
Reading: higher = stronger binding
Constant ends, left off below: GCCTAGCAC … GTCTTGATTCGCTTGACGCTGCTG
Residues (chain): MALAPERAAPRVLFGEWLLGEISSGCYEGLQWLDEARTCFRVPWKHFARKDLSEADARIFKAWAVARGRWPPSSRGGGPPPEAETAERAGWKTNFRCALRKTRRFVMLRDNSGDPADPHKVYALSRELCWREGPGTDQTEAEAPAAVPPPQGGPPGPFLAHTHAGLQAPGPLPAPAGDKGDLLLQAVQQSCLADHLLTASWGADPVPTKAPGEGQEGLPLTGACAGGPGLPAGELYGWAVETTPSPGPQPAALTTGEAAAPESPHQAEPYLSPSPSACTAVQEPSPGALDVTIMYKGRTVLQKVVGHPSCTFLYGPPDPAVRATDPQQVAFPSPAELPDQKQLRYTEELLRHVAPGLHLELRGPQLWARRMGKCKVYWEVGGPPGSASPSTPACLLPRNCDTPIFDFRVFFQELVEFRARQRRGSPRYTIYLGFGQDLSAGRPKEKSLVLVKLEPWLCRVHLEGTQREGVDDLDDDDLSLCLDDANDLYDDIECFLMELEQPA
Oligonucleotide	log fluorescence
TCTACTTCTGTTTTTGCTTTGTGCTAG	1.63 z-score
TCATACATCTATGTAGAACTGTGCTAG	0.0654 z-score
GACGGACTGCTACGGCTGACGTGCTAG	-0.736 z-score
TCCGTATGGATGGCCAATTGGTGCTAG	-0.445 z-score
CAAACACTAATTTTCAATTCGTGCTAG	0.453 z-score
GACGAACTGAGACTGGCGACGTGCTAG	-0.2 z-score
CACTCTCTGCTTGTGTCTGGGTGCTAG	0.583 z-score
TTAGGACTGGACTATCGGCTAGTGCTA	-0.618 z-score
TTAGGACTGGTCTTTCGGTTAGTGCTA	-0.0479 z-score
TTAGGTATCCTACTGCTTTCGTGCTAG	-0.0802 z-score
TTAGGACTCGGTATCGGTTAGTGCTAG	3.04 z-score
TTAGGTTTCCATCTCCTTTAGTGCTAG	3.28 z-score
GCCGGTCTCCTTATCCTGACGTGCTAG	0.296 z-score
GTATTTTTCTAAACCATTTTGTGCTAG	1.66 z-score
GACGATGTCGGGACTGGAGACGTGCTA	-0.69 z-score
TTAGGACTGGGGTATCCGTTAGTGCTA	-0.242 z-score
TCAGATTTCAATTAAAAACTGTGCTAG	0.498 z-score
TTAGAACTGAGTTTAGATTAGTGCTAG	-0.0953 z-score
TTAGATATCCTACTGCTTTAGTGCTAG	-0.00786 z-score
GACGGTTTCCTTCTCCTGAGGTGCTAG	2.58 z-score
AGTGTCATGTTTCTATGGGCGTGCTAG	0.312 z-score
AAGGGTTAAAATTTTGCTTCGTGCTAG	-0.569 z-score
TTAGGTCTCCTTCACCTTTAGTGCTAG	0.0355 z-score
ACTCATTTTCGTTTTGTGTCGTGCTAG	10.6 z-score
TTAGGTATCCTTATCCTTTGGTGCTAG	0.269 z-score

Some of these lines once more (sample 2):
Oligonucleotide	E-score
AGTTAGGC	0.0285
TAAGTCTA	-0.277
ACGACAGC	-0.133
AAAAATAA	0.0852
CCTTAGCA	0.0908
CGGCGAAC	0.243
AGGGTCAC	-0.138
GGCCATCA	-0.16
GAGAGCAA	0.232
ACCTATCG	-0.00236
AGGATAGC	0.00364
ATCGCAAC	0.13
CCCAATCG	0.0503
